Experimental data pooled from the literature.
Protocols differ between the studies behind these lines. Several values in a cell are separate wells, animals, samples, runs or records. ± gives the spread as reported.

| Structure (SMILES) | test | system | conditions | scale | endpoint | value |
| --- | --- | --- | --- | --- | --- | --- |
| CC/C=C\C/C=C\C/C=C\C/C=C\C/C=C\C/C=C\CCC(=O)O.Cc1cc(/C=C/C#N)cc(C)c1Nc1ccnc(Nc2ccc(C#N)cc2)n1 | – | aqueous buffer | pH 1.2 | – | equilibrium solubility | 67.95 ± 0.41 µg/mL |
| Cc1cc(NC2CCN(C(=O)OC3CCN(C(=O)/C=C/CN(C)C)C3)CC2)n2ncc(C(C)C)c2n1 (centres unmarked) | Phase I dose escalation CTCAE v4.0, item: dermatitis acneiform | patients with advanced solid tumours | dose not given, QD dosing any grade | – | patients with adverse event | 12% |
| CCc1ccc(-c2ccc(-c3cc(F)c(F)c(F)c3)c(F)c2)cc1 | – | rat, placenta | 5000 ng/mL in perfusate, high dose, mixture of 21 LCMs | – | placental accumulation | 395 ± 541 ng/g |
| N[C@@H]1c2ccccc2OC12CCN(c1cnc3c(N4CCCc5ncccc54)n[nH]c3n1)CC2 | – | advanced metastatic solid tumour patients, plasma | oral, 60 mg once daily, cycle 1 day 15, geometric mean | – | AUC(0-tau) | 7340 ng·h/mL |
| CC1(C)C(/C=C/C2=C(Cl)C(=C/C=C3\N(CCCCCC(=O)O)c4ccccc4C3(C)C)/CCC2)=[N+](CCCCCC(=O)O)c2ccccc21 | – | water | – | – | Stokes shift | 20 nm |
| CC(C)Cc1ccc(C(C)C(=O)O)cc1 (centres unmarked) | – | human | 600 mg, estimated from rat brain/serum ratio | – | brain concentration | 1000 to 3000 nM |
| O=c1[nH]c(=O)n([C@@H]2O[C@H](CO)[C@@H](O)[C@@H]2F)cc1CCCC[18F] | – | nude mice, RG2 tumour, spleen | intravenous, dose not given, 2 h | – | biodistribution | 0.11 ± 0.02 %ID/g |
| Cn1ncnc1[C@H]1c2n[nH]c(=O)c3cc(F)cc(c23)N[C@@H]1c1ccc(F)cc1 | – | human patients, plasma | oral, 600 µg/m2 twice daily day 1, day 5, dose level DL6, median, with: temozolomide 55 mg/m2 daily days 2-6 | – | AUCτ | 215 ng·h/mL |
| O=C(Nc1nc2cccc(-c3ccc(CN4CCS(=O)(=O)CC4)cc3)n2n1)C1CC1 | item: joint swelling | human rheumatoid arthritis patients | oral, 300 mg once daily, 4 weeks, regardless of relatedness | – | treatment-emergent adverse events | 0% |
| C[C@@H](Oc1ccc(S(C)(=O)=O)cc1C(=O)N1C[C@@H]2C[C@]2(c2cc(C(F)(F)F)on2)C1)C(F)(F)F | – | healthy young humans, plasma | oral, 50 mg once daily | reference: AUCtau,ss over AUC(0-inf) | linearity index | 0.779 |
| O=C(c1cccnc1-c1ccncc1)N1CCC(O)(Cc2ccccc2)CC1 | – | human, plasma | oral, 300 mg, with: mefenamic acid | – | Cmax at steady state | 2140 ng/mL |
| Cc1coc([C@H]2C[C@H]3[C@@H](CF)SC(N)=N[C@@]3(c3ccc(F)cc3F)CO2)n1 | – | male 129/SVE mouse, CSF | subcutaneous, 80 mg/kg, 14 h | – | CSF concentration | 28 nM |
| Cc1ccc([C@@H]2O[C@H](CO)[C@@H](O)[C@H](O)[C@H]2O)cc1Cc1ccc(-c2ccc(F)cc2)s1 | – | Japanese type 2 diabetes patients | 400 mg, day 18, 24 h urine collection | reference: baseline | urinary potassium excretion change | -3.04 mEq |
| Cn1cnc2ccc(Nc3c(F)ccc(NS(=O)(=O)N4CC(F)C4)c3Cl)c(Cl)c2c1=O | item: headache any grade | human patients | dose not given, monotherapy trial | reference: patients | patients with headache | 5% |
| CCOc1c([C@H](C)n2nc(C)c3c(N)ncnc32)cc(Cl)c(F)c1[C@@H]1CNC(=O)C1 | item: QTcF above 500 ms | previously treated B-cell malignancy | oral, 5 mg once daily, baseline QTcF ≤450 ms | – | patients | 0% |
| CNCCOC12CC3(C)CC(C)(CC(Cn4ncc(-c5ccc(N6CCc7cccc(C(=O)Nc8nc9ccccc9s8)c7C6)nc5C(=O)O)c4C)(C3)C1)C2 | – | beagle dog, male, anaesthetised | intravenous bolus, 0.03 mg/kg, 30 min | reference: baseline | heart rate change | 3% |
| CC(C)n1c(Nc2cccnc2)nc2cnc(Nc3ccc(N4CCN(C)CC4)cc3)nc21 | item: urine leukocytes positive | healthy male subjects | oral, 100 mg, study, with: gemfibrozil | – | subjects with adverse event | 0% |
| Cc1cccc(CNC(=O)c2cn(CCNC(=O)c3ccccc3Sc3c([N+](=O)[O-])ncn3C)c3cc4c(cc3c2=O)OC(F)(F)O4)n1 | – | Sprague-Dawley rat, male, whole blood | intravenous, 5 mg/kg of parent compound | – | MRT(0-inf) | 36 ± 8.4 min |
| Nc1ncn([C@H]2C[C@H](O)[C@@H](CO)O2)c(=O)n1 | – | processed mouse plasma | 40 ng/mL, 12 h, 4 °C, autosampler stability | – | mean deviation from nominal | -0.45% |

| Structure (SMILES) | test | system | conditions | scale | endpoint | value |
| --- | --- | --- | --- | --- | --- | --- |
| Cc1ccc(Sc2ccccc2N2CCNCC2)c(C)c1 | – | healthy adult men | oral, 2.5 mg single | – | increased blood creatine phosphokinase | 0% |
| N[C@@H](C[18F])C(=O)O | PET imaging | female athymic nude mice, U-87 MG xenograft, muscle | intravenous, 20 min | – | tracer uptake | 1.24 ± 0.1 %ID/cc |
| CCCCC[C@H](O)CC[C@@H]1[C@H]2Cc3cccc(OCC(=O)O)c3C[C@H]2C[C@H]1O | LC-MS/MS | female Japanese PAH patients, plasma | inhaled, 54 µg | – | geometric mean AUC(0-inf) | 0.86 ng·h/mL |
| Cc1c(C(=O)O)ccc2c3n(nc12)[C@@H]1[C@H](C3)N(CC2CC2)[C@@]2(C(=O)Nc3cc(Cl)ccc32)[C@H]1c1cccc(Cl)c1F | – | human patients phase Ia | oral, dose not given, all grades, all patients | – | decreased WBC count incidence | 24.1% |
| O=c1[nH]c(=O)n([C@@H]2O[C@H](CO)[C@@H](O)[C@@H]2F)cc1CCC[18F] | – | nude mice, RG2 tumour, brain | intravenous, dose not given, 2 h | – | biodistribution | 0.02 ± 0.01 %ID/g |
| CC(C)(C(=O)N1CCOc2c(C#N)cncc2C1)C(F)F | item: infections and infestations | human | oral, 10 mg once daily, 14 days, multiple ascending dose | – | subjects with adverse event | 0% |
| COC(=O)Nc1nc2cc(C(=O)c3ccc(F)cc3)ccc2[nH]1 | – | buffer | 24 h, pH 1.2, room temperature | – | equilibrium solubility | 17 ± 2.6 µg/mL |
| C[C@H](CCC(=O)NCC(=O)O)[C@H]1CC[C@H]2[C@@H]3CC[C@@H]4C[C@H](OS(=O)(=O)O)CC[C@]4(C)[C@H]3C[C@H](O)[C@]12C | – | human, plasma | baseline | – | Cmin | 112 ± 27 nM |
| CN(CCCNC(=O)c1cccc(C(=O)O)c1)CCCNC(=O)c1cc(NC(=O)c2cc(NC(=O)c3cc(NC(=O)c4cc(NC(=O)C[C@H](CNC(=O)c5cc(NC(=O)c6cc(NC(=O)c7nc(NC(=O)c8nccn8C)cn7C)cn6C)cn5C)NC(=O)c5ccccc5)cn4C)cn3C)cn2C)cn1C | HPLC after centrifugation | 0.1% DMSO in PBS | 2 h, 25 °C, with: 50 mM hydroxypropyl-β-cyclodextrin | reference: without cyclodextrin | solubility increase | > 50 fold |
| Cc1c(C(=O)O)ccc2c3n(nc12)[C@@H]1[C@H](C3)N(CC2CC2)[C@@]2(C(=O)Nc3cc(Cl)ccc32)[C@H]1c1cccc(Cl)c1F | – | female BALB/c nude mice, plasma | oral, 2 mg/kg once daily, 7 h, SJSA-1 tumour-bearing | – | plasma concentration | 1480 nM and 1240 nM and 1070 nM |
| Cl.[2H]C([2H])([2H])CC(=O)c1cnc(NC(=O)C2CC2)cc1Nc1cccc(-c2ncn(C([2H])([2H])[2H])n2)c1OC | geometric mean | human | oral, 10 mg once daily, day 1, fasted, liquid, multiple dose | – | AUC(0-inf) | 787 ng·h/mL |
| CCCCCc1ccc(C(=O)Oc2ccc(C#N)c(F)c2)cc1 | – | Sprague-Dawley rat, female, placenta | 5000 ng/mL in perfusate, 50 (unit not given), high dose, mixture of 21 LCMs | – | placental accumulation | 184 ± 395 ng/g |
| C=CCN1CC(=O)N2[C@@H](Cc3ccc(O)cc3F)C(=O)N(Cc3cccc(N4CC(N5CCN(CC)CC5)C4)n3)C[C@@H]2N1C(=O)NCc1ccccc1 | – | advanced solid tumour patients | oral, 45 mg twice daily, grade ≥3, dose-escalation | – | treatment-related decreased appetite | 0% |
| O=C(Nc1ccc(OC(F)(F)Cl)cc1)c1cnc(N2CC[C@@H](O)C2)c(-c2ccn[nH]2)c1 | per patient, item: absolute neutrophil decrease | human patients | oral, dose not given, dose-finding study | – | grade ≥3 event rate | 17.2% |
| CCO[C@H]1CCN(Cc2c(OC)cc(C)c3[nH]ccc23)[C@H](c2ccc(C(=O)O)cc2)C1 | – | healthy volunteers, plasma | oral, 200 mg single dose, geometric mean | – | total Cmax | 3490 ng/mL |
| C[C@@H](N)c1cc(Cl)ccc1Cn1c(=S)[nH]c(=O)c2[nH]ccc21 | – | human matched controls | oral, 2.5 mg single dose | – | subjects with severe adverse events | 0% |
| CCc1cc(C(=O)NC)c2nccc(N3CCc4c(cc(Cn5ccnc5)cc4-c4cn(C)nc4C(F)(F)F)C3=O)c2c1 | – | Sprague Dawley rats | oral, 100 mg/kg once daily, 7 days | reference: vehicle | serum ALP change | -4.3% |
| CCOC(=O)N1C[C@H](CC(C)C)N[C@H](C2CCOCC2)C1 | shake-flask, LC-HRMS | aqueous buffer | 16 h, pH 6.8 | – | solubility | > 750 µM |
| C=CC(=O)Nc1cc(Nc2nccc(-c3cn(C)c4ccccc34)n2)c(OC)cc1N(C)CCN(C)C | storage stability | human plasma | 2 h, on ice, HQC level | – | recovery | 98.6% |

| Structure (SMILES) | test | system | conditions | scale | endpoint | value |
| --- | --- | --- | --- | --- | --- | --- |
| CCOC(=O)N1C[C@@H](c2cccnc2)N[C@@H](c2cccnc2)C1 | shake-flask, LC-HRMS | aqueous buffer | 16 h, pH 6.8 | – | solubility | > 750 µM |
| COc1ccc(CNc2nc(-c3ccc(C(=O)O)cc3)nc3c2c2ccccc2n3C)cc1Cl | – | NSG mice | dose not given, day 3 | – | body weight | 23.6 g and 20.3 g and 23.9 g and 25.2 g |
| C[Si](C)(C)O[Si](C)(C)C | – | – | 7 to 48 µg/L, 20.0 °C | – | log KOA | 2.74 |
| CCOC(=O)N1C[C@@H](C2CCCCC2)N[C@@H](c2ccc(-c3ccccc3)cc2)C1 | shake-flask, LC-HRMS | aqueous buffer | 16 h, pH 6.8 | – | solubility | < 4 µM |
| CCc1c(-c2ccccc2)c(-c2ccccc2)nn1-c1ccccc1-c1cccc(OCC(=O)O)c1 | – | Sprague-Dawley rat | oral | – | Cmax/dose | 126 kg·ng/mL/mg and 209 kg·ng/mL/mg and 131 kg·ng/mL/mg |
| C[C@@H](c1ncncc1F)[C@](O)(Cn1cncn1)c1ccc(F)cc1F | – | human | oral, 400 mg, drug interaction trial | – | any TEAE | 36.4% |
| Cc1ccc([C@H]2N[C@@H](c3ccc(C(C)(C)C)cc3)CO[C@@H]2C)cn1 | shake-flask, LC-HRMS | aqueous buffer | 16 h, pH 6.8 | – | solubility | < 4 µM |
| NC1(C(=O)N[C@@H](CCO)c2ccc(Cl)cc2)CCN(c2nc[nH]c3nccc2-3)CC1 | – | metastatic CRPC patients | dose not given, grade 3 to 4, treatment-related, all doses, with: enzalutamide 160 mg daily | – | incidence of Amnesia | 0% |
| [18F]c1ccc(-c2ccc3c(c2)[nH]c2ccncc23)cn1 | ex vivo biodistribution | APP/PS1 mouse, AD model, lungs | intravenous, 30 min | – | SUV | 0.976 ± 0.171 |
| O=C(O)CSc1nnc(Br)n1-c1ccc(C2CC2)c2ccccc12 | – | KM mouse, chronic hyperuricaemia model | dose not given, day 13 | – | body weight | 35.8 g and 28 g and 33.8 g and 32 g and 32.2 g and 27.8 g |
| O=C(Nc1cnccc1Cl)N1CCN(Cc2ccc3c(c2)OC(F)(F)O3)CC1 | item: Headache | human healthy young men | 10 mg, multiple dose | – | adverse event incidence | 0% |
| COc1ccc([C@@H](O)c2cc(-c3ncnc4cc(N5CCOCC5)ccc34)c(F)cc2Cl)nn1 | – | locally advanced rectal cancer | oral, 150 mg, with: capecitabine and radiotherapy | – | rectal haemorrhage TEAE | 33% |
| CCN1CCN(Cc2ccc(NC(=O)c3ccc(C)c(NC(=O)c4cncc(-c5cccs5)c4)c3)cc2C(F)(F)F)CC1 | LC-MS/MS | C57BL/6 mouse, plasma | intraperitoneal, 15 mg/kg single dose, 1 h | – | mean plasma concentration | 582 ng/mL |
| O=C(COc1ccc(Cl)cc1)NC12CC(c3nnc([C@H]4C[C@@H](OC(F)(F)F)C4)o3)(C1)C2 | item: Presyncope | healthy humans, both sexes | oral, 200 mg, single ascending dose | reference: subjects | treatment-emergent adverse events | 16.7% |
| CNC(=O)c1ccc(-c2cnc3ncc(Cc4ccc5ncccc5c4)n3n2)cc1F | item: Anemia, all grades | gastric cancer patients | oral, 600 mg twice daily, expansion cohort, any causality | – | patients with adverse event | 0% |
| Cn1cc(Nc2nccc(-c3ccc4c(c3)CN(C3COC3)CC[C@H]4NC(=O)c3cn(C(C)(C)C)nn3)n2)cn1 | item: CD3+ T cell count | human, clinical trial, whole blood | 150 mg twice daily, follow-up | – | percent change from baseline | 5.92% |
| Cc1c(-c2ccc(N3CCc4cccc(C(=O)Nc5nc6ccccc6s5)c4C3)nc2C(=O)O)cnn1CC12CC3(C)CC(C)(C1)CC(OCCNCC[C@H](O)CO)(C3)C2 | – | beagle dog, male, anaesthetised | intravenous infusion, 0.3 mg/kg/min, 90 min | reference: vehicle | QRS duration change | -1 ms |
| COc1cc2nccc(Oc3ccc(NC(=O)c4cc5c(n(-c6ccccc6)c4=O)CCCC5=O)nc3)c2cc1OC | – | relapsed or refractory AML | oral, 10 mg once daily | – | grade ≥3 Leucocytosis patients | 14.3% |
